Measured values pooled from the literature.
A part holds a random share of what one study measured.
Chain of UniProt P23458 (whole entry, looked up): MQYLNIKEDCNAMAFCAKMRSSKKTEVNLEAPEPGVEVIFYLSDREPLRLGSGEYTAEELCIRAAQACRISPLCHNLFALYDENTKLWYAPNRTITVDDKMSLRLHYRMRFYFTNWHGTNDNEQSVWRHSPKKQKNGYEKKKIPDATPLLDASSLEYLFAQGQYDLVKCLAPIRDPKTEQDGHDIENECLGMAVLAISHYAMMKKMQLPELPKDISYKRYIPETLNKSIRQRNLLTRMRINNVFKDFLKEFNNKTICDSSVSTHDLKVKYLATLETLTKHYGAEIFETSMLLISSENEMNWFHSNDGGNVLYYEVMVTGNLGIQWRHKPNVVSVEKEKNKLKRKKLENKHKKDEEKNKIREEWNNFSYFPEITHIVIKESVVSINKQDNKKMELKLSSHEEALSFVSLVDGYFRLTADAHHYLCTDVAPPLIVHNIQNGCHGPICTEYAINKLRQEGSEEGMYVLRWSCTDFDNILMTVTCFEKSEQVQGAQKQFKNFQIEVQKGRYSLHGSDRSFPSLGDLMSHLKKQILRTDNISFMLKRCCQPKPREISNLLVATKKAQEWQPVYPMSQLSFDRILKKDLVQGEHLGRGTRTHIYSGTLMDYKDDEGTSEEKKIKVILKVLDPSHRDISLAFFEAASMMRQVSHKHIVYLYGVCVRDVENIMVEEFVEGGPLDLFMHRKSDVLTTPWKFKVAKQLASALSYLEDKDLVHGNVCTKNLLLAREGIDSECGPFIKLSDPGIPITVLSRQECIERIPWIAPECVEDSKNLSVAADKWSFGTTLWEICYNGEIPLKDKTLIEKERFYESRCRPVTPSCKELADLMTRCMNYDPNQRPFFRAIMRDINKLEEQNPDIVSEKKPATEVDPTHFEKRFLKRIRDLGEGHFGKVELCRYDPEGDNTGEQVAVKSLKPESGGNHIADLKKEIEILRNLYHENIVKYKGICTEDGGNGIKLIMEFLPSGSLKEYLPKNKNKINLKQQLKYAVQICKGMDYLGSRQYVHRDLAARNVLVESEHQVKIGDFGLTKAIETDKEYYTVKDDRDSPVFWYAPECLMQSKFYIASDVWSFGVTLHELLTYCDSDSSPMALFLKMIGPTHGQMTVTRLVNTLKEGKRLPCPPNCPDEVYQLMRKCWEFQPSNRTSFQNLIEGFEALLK
Chain of UniProt P15056 (whole entry, unmodified, looked up): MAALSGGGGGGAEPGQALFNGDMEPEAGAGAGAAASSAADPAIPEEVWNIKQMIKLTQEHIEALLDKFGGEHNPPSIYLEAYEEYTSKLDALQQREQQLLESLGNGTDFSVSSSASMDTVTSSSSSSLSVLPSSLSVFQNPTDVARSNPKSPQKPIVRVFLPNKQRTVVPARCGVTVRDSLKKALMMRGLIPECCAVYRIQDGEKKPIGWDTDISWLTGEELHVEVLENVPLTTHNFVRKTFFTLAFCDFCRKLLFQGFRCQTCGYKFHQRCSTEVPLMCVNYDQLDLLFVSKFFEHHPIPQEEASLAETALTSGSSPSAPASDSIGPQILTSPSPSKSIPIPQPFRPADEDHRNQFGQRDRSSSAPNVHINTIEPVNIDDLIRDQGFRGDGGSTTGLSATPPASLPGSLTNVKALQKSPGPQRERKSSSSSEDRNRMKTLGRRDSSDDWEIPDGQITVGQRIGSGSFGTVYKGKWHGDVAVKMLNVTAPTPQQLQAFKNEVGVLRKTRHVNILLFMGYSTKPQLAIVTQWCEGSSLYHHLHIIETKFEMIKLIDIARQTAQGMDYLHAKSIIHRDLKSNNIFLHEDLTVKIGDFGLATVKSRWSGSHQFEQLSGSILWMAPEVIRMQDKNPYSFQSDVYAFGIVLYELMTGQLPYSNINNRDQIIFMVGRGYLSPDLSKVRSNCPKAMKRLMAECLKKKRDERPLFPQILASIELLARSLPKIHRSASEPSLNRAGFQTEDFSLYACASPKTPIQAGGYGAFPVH
Chain of UniProt P29317 (whole entry, looked up): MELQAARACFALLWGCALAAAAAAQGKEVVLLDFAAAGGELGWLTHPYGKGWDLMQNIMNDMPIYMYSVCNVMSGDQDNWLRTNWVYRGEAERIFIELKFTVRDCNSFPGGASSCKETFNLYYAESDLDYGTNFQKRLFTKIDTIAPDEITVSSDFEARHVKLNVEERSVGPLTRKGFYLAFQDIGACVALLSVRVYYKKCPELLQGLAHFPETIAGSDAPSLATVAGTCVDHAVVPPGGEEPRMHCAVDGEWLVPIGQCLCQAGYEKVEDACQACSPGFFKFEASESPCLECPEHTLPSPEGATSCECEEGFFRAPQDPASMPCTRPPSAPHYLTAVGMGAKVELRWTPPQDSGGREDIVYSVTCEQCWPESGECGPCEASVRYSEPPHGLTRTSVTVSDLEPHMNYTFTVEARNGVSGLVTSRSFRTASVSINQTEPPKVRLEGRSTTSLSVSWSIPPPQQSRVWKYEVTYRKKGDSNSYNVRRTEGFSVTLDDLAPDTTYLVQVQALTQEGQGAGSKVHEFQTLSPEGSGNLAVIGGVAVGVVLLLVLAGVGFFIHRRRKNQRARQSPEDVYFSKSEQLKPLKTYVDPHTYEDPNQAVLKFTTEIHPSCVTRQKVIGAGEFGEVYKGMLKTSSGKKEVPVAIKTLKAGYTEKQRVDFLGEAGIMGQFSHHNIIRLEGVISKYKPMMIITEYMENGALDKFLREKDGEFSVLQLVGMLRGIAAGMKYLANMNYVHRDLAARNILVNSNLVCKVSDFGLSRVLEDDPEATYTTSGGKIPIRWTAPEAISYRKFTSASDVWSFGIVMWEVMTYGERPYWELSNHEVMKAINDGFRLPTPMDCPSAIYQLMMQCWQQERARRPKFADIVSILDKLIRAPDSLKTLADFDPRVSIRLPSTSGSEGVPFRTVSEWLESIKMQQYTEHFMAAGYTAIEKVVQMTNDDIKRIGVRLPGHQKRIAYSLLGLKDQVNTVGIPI
Chain of UniProt P25098 (whole entry, looked up): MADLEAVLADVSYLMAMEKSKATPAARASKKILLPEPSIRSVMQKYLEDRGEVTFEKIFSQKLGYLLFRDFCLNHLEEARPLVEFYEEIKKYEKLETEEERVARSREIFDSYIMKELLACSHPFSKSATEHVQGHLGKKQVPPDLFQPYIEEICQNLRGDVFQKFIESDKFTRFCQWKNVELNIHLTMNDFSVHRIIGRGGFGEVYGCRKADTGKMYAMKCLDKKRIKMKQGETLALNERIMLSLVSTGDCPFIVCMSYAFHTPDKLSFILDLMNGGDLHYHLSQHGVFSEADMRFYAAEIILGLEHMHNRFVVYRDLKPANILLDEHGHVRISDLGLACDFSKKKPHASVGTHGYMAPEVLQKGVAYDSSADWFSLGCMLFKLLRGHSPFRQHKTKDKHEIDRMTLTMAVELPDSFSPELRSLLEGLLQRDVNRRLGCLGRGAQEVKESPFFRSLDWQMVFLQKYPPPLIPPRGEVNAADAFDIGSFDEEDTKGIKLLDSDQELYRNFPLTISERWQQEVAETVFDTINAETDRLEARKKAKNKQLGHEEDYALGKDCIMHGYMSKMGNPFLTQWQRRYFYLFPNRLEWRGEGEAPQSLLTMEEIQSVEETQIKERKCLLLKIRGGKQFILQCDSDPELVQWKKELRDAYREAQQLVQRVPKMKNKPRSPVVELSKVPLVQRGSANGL
Chain of UniProt P49759 (whole entry, looked up): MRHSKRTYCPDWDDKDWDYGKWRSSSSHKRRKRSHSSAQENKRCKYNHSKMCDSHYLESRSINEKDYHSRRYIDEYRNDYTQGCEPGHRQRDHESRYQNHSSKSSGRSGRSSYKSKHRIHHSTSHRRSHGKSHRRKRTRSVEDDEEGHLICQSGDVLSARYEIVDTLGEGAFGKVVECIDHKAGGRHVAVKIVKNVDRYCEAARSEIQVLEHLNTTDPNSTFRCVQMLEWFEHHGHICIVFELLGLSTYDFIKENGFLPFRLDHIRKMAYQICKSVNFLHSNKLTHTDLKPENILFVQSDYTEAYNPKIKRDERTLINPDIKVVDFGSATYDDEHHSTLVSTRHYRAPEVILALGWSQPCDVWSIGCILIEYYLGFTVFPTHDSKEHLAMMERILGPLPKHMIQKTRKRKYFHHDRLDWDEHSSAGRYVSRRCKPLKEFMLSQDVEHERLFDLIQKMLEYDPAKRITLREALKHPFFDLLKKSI
Chain of UniProt P48730 (whole entry, looked up): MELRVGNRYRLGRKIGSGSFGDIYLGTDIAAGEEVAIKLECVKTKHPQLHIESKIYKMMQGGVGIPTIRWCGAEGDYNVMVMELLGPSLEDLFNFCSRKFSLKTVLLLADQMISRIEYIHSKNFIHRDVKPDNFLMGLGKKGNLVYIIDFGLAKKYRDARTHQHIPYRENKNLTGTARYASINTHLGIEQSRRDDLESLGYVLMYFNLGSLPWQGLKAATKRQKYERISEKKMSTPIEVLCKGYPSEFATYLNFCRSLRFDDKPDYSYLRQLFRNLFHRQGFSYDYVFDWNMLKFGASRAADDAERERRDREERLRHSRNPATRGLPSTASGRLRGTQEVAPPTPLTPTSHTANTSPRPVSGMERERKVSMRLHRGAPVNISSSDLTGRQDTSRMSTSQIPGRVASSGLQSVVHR
Chain of UniProt P68400 (whole entry, looked up): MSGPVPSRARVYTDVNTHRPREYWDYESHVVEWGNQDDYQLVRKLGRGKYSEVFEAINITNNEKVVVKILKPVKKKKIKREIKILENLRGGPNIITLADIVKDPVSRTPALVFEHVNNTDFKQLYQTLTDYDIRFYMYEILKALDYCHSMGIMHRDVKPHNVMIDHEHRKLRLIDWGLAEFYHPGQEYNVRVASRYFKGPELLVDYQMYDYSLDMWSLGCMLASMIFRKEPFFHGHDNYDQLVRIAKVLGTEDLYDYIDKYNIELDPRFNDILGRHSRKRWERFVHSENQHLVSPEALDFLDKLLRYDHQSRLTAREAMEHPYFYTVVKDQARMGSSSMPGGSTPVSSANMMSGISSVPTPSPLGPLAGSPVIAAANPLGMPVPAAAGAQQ

Study 1
Structure (SMILES): NC(=O)c1ccc(-c2nc(-c3ccc4c(c3)OCCO4)c(-c3ccccn3)[nH]2)cc1
Read-out: enzyme activity
Action: inhibitor
Concentration: 0.5 µM
Relative to: control
It gave 96.4% for remaining activity (Mitogen-activated protein kinase kinase kinase 20 (MAP3K20, Homo sapiens, UniProt Q9NYL2)).
The remaining activity was 90.1% (Insulin-like growth factor 1 receptor (IGF1R, Homo sapiens, UniProt P08069)).
Serine/threonine-protein kinase PAK 1 (PAK1, Homo sapiens, UniProt Q13153) — remaining activity: 95%.
It gave 46.9% for remaining activity (Casein kinase I isoform epsilon (CSNK1E, Homo sapiens, UniProt P49674)).
Ephrin type-A receptor 2 (EPHA2, Homo sapiens, UniProt P29317) — remaining activity: 96.6%.
It gave 98.1% for remaining activity (Tyrosine-protein kinase JAK1 (JAK1, Homo sapiens, UniProt P23458)).
The remaining activity was 98.2% (Serine/threonine-protein kinase PAK 6 (PAK6, Homo sapiens, UniProt Q9NQU5)).
It gave 98.6% for remaining activity (Serine/threonine-protein kinase Sgk2 (SGK2, Homo sapiens, UniProt Q9HBY8)).
Calcium/calmodulin-dependent protein kinase type 1 (CAMK1, Homo sapiens, UniProt Q14012) — remaining activity: 96.9%.
Ribosomal protein S6 kinase alpha-3 (RPS6KA3, Homo sapiens, UniProt P51812) — remaining activity: 88.8%.
It gave 95.8% for remaining activity (Tyrosine-protein kinase Tec (TEC, Homo sapiens, UniProt P42680)).
For Serine/threonine-protein kinase SIK2 (SIK2, Homo sapiens, UniProt Q9H0K1): remaining activity read 107%.
For Casein kinase I isoform delta (CSNK1D, Homo sapiens, UniProt P48730): remaining activity read 40.9%.
The remaining activity was 93.5% (Cyclin-dependent kinase 2, with cyclin E (CDK2, Homo sapiens, UniProt P24941)).
It gave 95.5% for remaining activity (SRSF protein kinase 1 (SRPK1, Homo sapiens, UniProt Q96SB4)).
The remaining activity was 114% (Calcium/calmodulin-dependent protein kinase kinase 1 (CAMKK1, Homo sapiens, UniProt Q8N5S9)).
For Dual specificity protein kinase CLK2 (CLK2, Homo sapiens, UniProt P49760): remaining activity read 103%.
It gave 89.4% for remaining activity (Vascular endothelial growth factor receptor 1 (FLT1, Homo sapiens, UniProt P17948)).
For Tyrosine-protein kinase receptor TYRO3 (TYRO3, Homo sapiens, UniProt Q06418): remaining activity read 106%.
It gave 89.7% for remaining activity (Protein kinase C theta type (PRKCQ, Homo sapiens, UniProt Q04759)).
The remaining activity was 105% (Dual specificity protein kinase CLK1 (CLK1, Homo sapiens, UniProt P49759)).

Study 2
Organism: Sarcocystis neurona
Read-out: parasite growth
Concentration: 10 µM
Time: 96 h
Setting: second screen
Relative to: untreated
Under “log2 fold change”, `CCCCc1oc2ccccc2c1C(=O)c1cc(I)c(OCCN(CC)CC)c(I)c1` is recorded as 0.12.
`CC1(C)O[C@@H]2C[C@H]3[C@@H]4C[C@H](F)C5=CC(=O)C=C[C@]5(C)[C@@]4(F)[C@@H](O)C[C@]3(C)[C@]2(C(=O)CO)O1`: “log2 fold change” 0.36.
Under “log2 fold change”, `O=C1Nc2ccc(Cl)cc2[C@@](C#CC2CC2)(C(F)(F)F)O1` is recorded as -0.29.
`CC[C@H]1OC(=O)[C@H](C)[C@@H](O[C@H]2C[C@@](C)(OC)[C@@H](O)[C@H](C)O2)[C@H](C)[C@@H](O[C@@H]2O[C@H](C)C[C@H](N(C)C)[C@H]2O)[C@](C)(OC)C[C@@H](C)C(=O)[C@H](C)[C@@H](O)[C@]1(C)O` — result for “log2 fold change”: 0.03.
For `NC(=O)c1cnccn1`, “log2 fold change” read 0.0534.
`N[C@@H](C(=O)N[C@@H]1C(=O)N2C(C(=O)O)=C(Cl)CS[C@H]12)c1ccccc1`: “log2 fold change” 0.53.
`O=c1[nH]cnc2c1ncn2[C@H]1CC[C@@H](CO)O1` — result for “log2 fold change”: 0.4.
Under “log2 fold change”, `CC1(C)O[C@@H]2C[C@H]3[C@@H]4CCC5=CC(=O)C=C[C@]5(C)[C@@]4(F)[C@@H](O)C[C@]3(C)[C@]2(C(=O)CO)O1` is recorded as 0.65.
For `C=CCc1ccc(O)c(-c2ccc(O)c(CC=C)c2)c1`, “log2 fold change” read 0.48.
`O=c1cnn([C@@H]2O[C@H](CO)[C@@H](O)[C@H]2O)c(=O)[nH]1`: “log2 fold change” 0.22.
`CCC[C@@H]1C[C@@H](C(=O)N[C@@H]([C@H]2O[C@H](SC)[C@H](O)[C@@H](O)[C@H]2O)[C@@H](C)O)N(C)C1` — result for “log2 fold change”: -0.08.
Under “log2 fold change”, `Clc1ccc(COC(Cn2ccnc2)c2ccc(Cl)cc2Cl)cc1` (stereo not shown) is recorded as -0.1.

Study 3
Compound: CN(C)c1ncnc(-c2ccc3nc(Nc4cc(CN5CCN(C(=O)CC(F)(F)F)CC5)ccn4)[nH]c3c2)c1Cl
Read-out: cell-free assay
Technique: competition with immobilised ligand
Concentration: 1 µM
For ALK tyrosine kinase receptor (ALK, Homo sapiens, UniProt Q9UM73): remaining binding read 75%.
It gave 84% for remaining binding (Serine/threonine-protein kinase B-raf (BRAF, Homo sapiens, UniProt P15056, V600E)).
Glycogen synthase kinase-3 alpha (GSK3A, Homo sapiens, UniProt P49840) — remaining binding: 75%.
Beta-adrenergic receptor kinase 1 (GRK2, Homo sapiens, UniProt P25098) — remaining binding: 57%.
The remaining binding was 68% (Tyrosine-protein kinase JAK1, JH2 (JAK1, Homo sapiens, UniProt P23458)).
The remaining binding was 100% (Phosphatidylinositol 4-kinase beta (PI4KB, Homo sapiens, UniProt Q9UBF8)).
The remaining binding was 100% (Activin receptor type-2B (ACVR2B, Homo sapiens, UniProt Q13705)).
Casein kinase II subunit alpha (CSNK2A1, Homo sapiens, UniProt P68400) — remaining binding: 80%.
The remaining binding was 74% (Mitogen-activated protein kinase kinase kinase kinase 3 (MAP4K3, Homo sapiens, UniProt Q8IVH8)).
It gave 100% for remaining binding (LIM domain kinase 1 (LIMK1, Homo sapiens, UniProt P53667)).
The remaining binding was 100% (Cyclin-dependent kinase 11B (CDK11B, Homo sapiens, UniProt P21127)).
It gave 100% for remaining binding (Mitogen-activated protein kinase 4 (MAPK4, Homo sapiens, UniProt P31152)).

Single results of other studies
For `CC(C)n1cnc(-c2ccc(F)cc2)c1-c1ncc(C(=O)Nc2ccc(N3CCN(C)CC3)cc2)[nH]1`, “patients with ECG high voltage” read 0% (human, idiopathic pulmonary fibrosis; 30 mg once daily, trial, treatment-emergent).

A few entries again (study 2):
`N[C@@H](C(=O)N[C@@H]1C(=O)N2C(C(=O)O)=C(Cl)CS[C@H]12)c1ccccc1`: “log2 fold change” 0.53.
`O=c1[nH]cnc2c1ncn2[C@H]1CC[C@@H](CO)O1` — result for “log2 fold change”: 0.4.
Under “log2 fold change”, `CC1(C)O[C@@H]2C[C@H]3[C@@H]4CCC5=CC(=O)C=C[C@]5(C)[C@@]4(F)[C@@H](O)C[C@]3(C)[C@]2(C(=O)CO)O1` is recorded as 0.65.
For `C=CCc1ccc(O)c(-c2ccc(O)c(CC=C)c2)c1`, “log2 fold change” read 0.48.
`O=c1cnn([C@@H]2O[C@H](CO)[C@@H](O)[C@H]2O)c(=O)[nH]1`: “log2 fold change” 0.22.
`CCC[C@@H]1C[C@@H](C(=O)N[C@@H]([C@H]2O[C@H](SC)[C@H](O)[C@@H](O)[C@H]2O)[C@@H](C)O)N(C)C1` — result for “log2 fold change”: -0.08.
Under “log2 fold change”, `Clc1ccc(COC(Cn2ccnc2)c2ccc(Cl)cc2Cl)cc1` (stereo not shown) is recorded as -0.1.
